Assay results gathered from unrelated publications.
A part holds a random share of what one study measured. Substitutions count along the parent as printed.

Sample 1
Target: CREB3L4, bZIP domain (human)
Technique: DHFR protein complementation
Sample: yeast
Setting: single substitutions, most at no-binding floor
Baseline: wild-type JUN-FOS pair
Direction: higher = stronger binding
Starting sequence: JUN, bZIP domain (human); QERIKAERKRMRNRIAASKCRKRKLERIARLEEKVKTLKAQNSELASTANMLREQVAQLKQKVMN; partner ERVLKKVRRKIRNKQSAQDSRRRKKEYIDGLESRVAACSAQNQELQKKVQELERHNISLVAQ
| Substitution | binding fitness |
| --- | --- |
| L45T | -1.5 natural log |
| Q55V | -1.38 natural log |
| L38I | -1.5 natural log |
| A46G | -1.29 natural log |
| E33I | -1.56 natural log |
| L31P | -1.52 natural log |
| A40T | -1.38 natural log |
| K39C | -1.48 natural log |
| L52F | -1.47 natural log |
| A40L | -1.45 natural log |
| T48P | -1.49 natural log |
| L45V | -1.44 natural log |
| A29Y | -1.35 natural log |
| N42E | -1.45 natural log |
| A57G | -1.32 natural log |
| A29H | -1.14 natural log |
| M51E | -1.22 natural log |
| I28F | -1.52 natural log |
| E33V | -1.43 natural log |
| Q55T | -1.49 natural log |
| E44Q | -1.36 natural log |

Sample 2
Target: CCND2, cyclin fold, Cln2 fusion (human)
Technique: yeast growth competition, sequencing
Sample: yeast
Setting: strong parent motif
Baseline: not given
Direction: higher = stronger binding
Starting sequence: INSM1 docking peptide (human); PKAIRKLHFEDEV; partner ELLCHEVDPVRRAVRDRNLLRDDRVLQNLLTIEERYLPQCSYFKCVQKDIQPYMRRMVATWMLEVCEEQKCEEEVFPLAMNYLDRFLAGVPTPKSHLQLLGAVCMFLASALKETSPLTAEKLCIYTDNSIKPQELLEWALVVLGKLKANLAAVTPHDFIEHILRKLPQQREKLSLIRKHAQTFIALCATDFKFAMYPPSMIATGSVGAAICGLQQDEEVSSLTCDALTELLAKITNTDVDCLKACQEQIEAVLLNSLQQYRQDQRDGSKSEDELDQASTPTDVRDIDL
| Substitution | normalised enrichment score |
| --- | --- |
| PLAIRKLHFEDEV [K2L] | 1.31 |
| PKAIRWLHFEDEV [K6W] | 1.2 |
| PKAIRTLHFEDEV [K6T] | 0.64 |
| PKAIDKLHFEDEV [R5D] | 0.448 |
| PKAIRKLHFELEV [D11L] | 1.42 |
| PKAIRKLHFEDVV [E12V] | 1.73 |
| PKAQRKLHFEDEV [I4Q] | 1.64 |
| PKAGRKLHFEDEV [I4G] | 0.33 |
| PKAIRKKHFEDEV [L7K] | 0.162 |
| PKAIRKLHFEQEV [D11Q] | 1.94 |
| PKYIRKLHFEDEV [A3Y] | 0.174 |
| PKAIRKLHFETEV [D11T] | 0.995 |
| PKAIRKLHPEDEV [F9P] | 0.289 |
| PWAIRKLHFEDEV [K2W] | 0.969 |
| PKCIRKLHFEDEV [A3C] | 1.9 |
| PKAWRKLHFEDEV [I4W] | 0.194 |
| PKAIGKLHFEDEV [R5G] | 0.0585 |
| PKEIRKLHFEDEV [A3E] | 0.555 |
| PKAIRKLMFEDEV [H8M] | 2.41 |
| PHAIRKLHFEDEV [K2H] | 1.7 |
| PKAIRKLHMEDEV [F9M] | 0.469 |
| PKAIRKLHFEDTV [E12T] | 1.77 |
| PKAARKLHFEDEV [I4A] | 3.06 |
| PKAIRKLHFDDEV [E10D] | 1.96 |
| PKAIHKLHFEDEV [R5H] | 0.215 |

Sample 3
Target: RNA binding protein fox-1 homolog 2, RRM domain, GST-SBP tag (RBFOX2, Homo sapiens, UniProt O43251-10, residues 100-194)
Technique: RNA Bind-n-Seq
Molecule type: RNA
Sample: in vitro
Concentration: 365 nM
Setting: natural RNA segment, single round, ends assumed
Baseline: no-protein control
Direction: higher = stronger binding
Residues (chain): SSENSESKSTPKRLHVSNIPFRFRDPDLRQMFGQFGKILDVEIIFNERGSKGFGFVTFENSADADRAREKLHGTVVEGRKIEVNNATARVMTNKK
| Sequence | RBNS enrichment (R) |
| --- | --- |
| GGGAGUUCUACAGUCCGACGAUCGGCAACCCACCACCUUCCAUGAAAAACUCCUCUCAUCCUUGUCAUUUUACUUUUUUGUAUACAUAUGUGUAACUUACACUGUUAUUAAUUCAACGGAUAUAUAUUUAUCAUGGAAUUCUCGGGUGCCAA | 0.452 |
| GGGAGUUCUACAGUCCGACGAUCAGGCUCAAGGUCCAGGGAGAGACAACAGAGGAGUGUCCAAGACUUGCCCACACCUCCUCCCAUUUGCUGGGGGAGCUUUGGCCAAUUCACUCCUUUCUAGGUCUUAGUUUUGGAAUUCUCGGGUGCCAA | 0.375 |
| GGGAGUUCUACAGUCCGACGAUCCCAUAUGGCAAAGGCCUUUAUUGUGUUAAAUAACUUAGUAUCUCAUAUAUACAUAUAUAUGCACCUAUAUAACGUGUAUAUAUAUAAAUGCAGCCAUUGCUAUUGCAAUUUGGAAUUCUCGGGUGCCAA | 0.38 |
| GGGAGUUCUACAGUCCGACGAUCACUGCAUUGUCAGCACUGACCUUGCUUGGUCCUUUCCCUCCUGCUGUCCCUCAGUGCCUUCUCUCAGCUCCCAGGCCAAUGGCGGCCAGCCUUCCCCAAGACAAUGAGGUUGGAAUUCUCGGGUGCCAA | 0.378 |
| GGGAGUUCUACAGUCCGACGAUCUGAGCUGCUACAAAAUGAAGCAAAAACACUCUUGGCUCAAGCUAACAGCAAGCUCCAGCUGUUGGAAGGCUUAGAAAGAAAAUAUGAGGACAAUCAAAAAUACUUAGAAGUGGAAUUCUCGGGUGCCAA | 0.386 |
| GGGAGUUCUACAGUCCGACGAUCAGCCAGGCACCCACCUCAGGACAAGUUCAGGAAGGGAAGACAGUGGACUGUACGGGACCUGGUGUGUGUGGUGGUGUGAGUGGUGGGGCUGUGGGUGAGAGAUCGCUCUCUGGAAUUCUCGGGUGCCAA | 0.705 |
| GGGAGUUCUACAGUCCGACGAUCAUUAUUGGGUCUCUGCCUUAAAACACAUCAAAAUUCAUUUUAGACAAAAAAACUUCUGCUUUGUCUUUGGUCAUUAGGGAGCUCUAAUGUGUGUUUGUGGCUCCAAGUUAUGGAAUUCUCGGGUGCCAA | 0.517 |
| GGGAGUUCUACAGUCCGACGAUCGUUUUAAGGAGAUACAAUUUACCUGCCACAAAAUUUACCCAUUUUAGGUUUAUACUUAGAUGGUUGUUCAGUAAGUUUAUAGAGUUGUGCAACUAUCACAACCAAUGUUAUGGAAUUCUCGGGUGCCAA | 0.621 |
| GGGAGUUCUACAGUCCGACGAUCUGUCUUGUGUGUGGUACCUUGGGCAAGUUACUAACUCCCUCUGUAAAGUAGAGACGAUGGGGACUGUCUCACUGUGACAAGGUAAGAUUUAAGUGAGAUGCACACAAAAAUGGAAUUCUCGGGUGCCAA | 1.98 |
| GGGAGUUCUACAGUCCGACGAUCAUUCUGACCCUCGACACCUGAGAGAACCCUAGAAGGACAUUAUUAGCUUGCUGUCAUUUCUGAACCCAGGAUCUGUCAUCAAAUGAAACAUGUUUAAAAAGUGACUCUGAUGGAAUUCUCGGGUGCCAA | 0.44 |
| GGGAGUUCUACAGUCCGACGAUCCACUGCCCCUCUCCCUCAAGCCUAAGACACUAAGACCCCAGACCCAAAGCCAAGUCCACCAGAGUGGCUGCAGGCCAGGCCUGGAGUCCCCGUGGGUCAAGCAUUUGUCUUGGAAUUCUCGGGUGCCAA | 0.248 |
| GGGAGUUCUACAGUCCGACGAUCGGUGGCAUUGGUUAGGAAUGGGACACACGCCCCUUGUUGUGAAGUUUACAUGUGACCUUCUUAUAGGUUAACUGAGUUUGUGGCCUGGGACACAUGUAAUGAAGGUCACAUGGAAUUCUCGGGUGCCAA | 1.04 |

Sample 4
Target: Ras GTPase-activating protein-binding protein 1, full length (G3BP1, Homo sapiens, UniProt Q13283)
Chain of UniProt Q13283 (whole entry, looked up): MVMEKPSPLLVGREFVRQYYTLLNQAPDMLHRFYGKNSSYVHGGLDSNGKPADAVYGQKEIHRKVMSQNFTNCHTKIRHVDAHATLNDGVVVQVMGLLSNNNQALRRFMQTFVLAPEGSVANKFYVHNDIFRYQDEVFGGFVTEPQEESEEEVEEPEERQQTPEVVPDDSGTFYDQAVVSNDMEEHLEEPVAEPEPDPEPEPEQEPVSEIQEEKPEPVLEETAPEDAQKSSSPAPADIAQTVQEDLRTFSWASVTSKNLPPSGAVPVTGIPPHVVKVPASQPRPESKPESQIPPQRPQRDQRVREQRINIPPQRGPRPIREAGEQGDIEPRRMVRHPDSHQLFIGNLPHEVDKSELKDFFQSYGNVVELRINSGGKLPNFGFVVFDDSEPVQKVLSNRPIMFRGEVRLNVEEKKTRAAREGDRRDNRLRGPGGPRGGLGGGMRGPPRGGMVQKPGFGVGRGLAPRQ
Technique: RNA Bind-n-Seq
Molecule type: RNA
Sample: in vitro
Concentration: 200 nM
Setting: whole 134-nt RNA, ends assumed
Together with: 150 mM KCl
Baseline: input library
Direction: higher = stronger binding
| Sequence | log2 enrichment |
| --- | --- |
| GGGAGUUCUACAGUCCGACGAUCUUUCUAGGCAAGAGGAGGAACGACGUAGAAGAGAGGAAGAGAUGAUGAUUCGUCAACGUGAGAUGGAAGAACAAAUGAGGCGCCAAAGAGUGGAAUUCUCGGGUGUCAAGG | 1.22 |
| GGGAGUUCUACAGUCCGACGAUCAGUCCUGUGCUACACAUCGUAUGUACCGAAUCGGGUGGGAAAAAGGGUUUUUUUGGGAAAGUAUUAUGUUACGCCGUUCGGAUCUGCACUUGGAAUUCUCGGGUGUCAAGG | -0.14 |
| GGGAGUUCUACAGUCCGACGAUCUUCCUCAAGUCCUGUGCUACACAUCGUAUGUACCGAAUCGGAGGGAGGAGGAAAGUAUUAUGUUACGCCGUUCGGAUCUGCACUUCCAGCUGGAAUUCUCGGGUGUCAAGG | -0.661 |
| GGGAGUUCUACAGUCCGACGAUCCCUCAAGUCCUGUGCUACACAUCGUAUGUACCGAAUCGGGGUGGGUGGGGUGGAAAGUAUUAUGUUACGCCGUUCGGAUCUGCACUUCCAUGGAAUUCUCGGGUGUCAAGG | 1.17 |
| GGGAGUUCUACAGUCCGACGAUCCAAGUCCUGUGCUACACAUCGUAUGUACCGAAUCGGGAAAAGGAAAAGGAAAAGGGAAAGUAUUAUGUUACGCCGUUCGGAUCUGCACUUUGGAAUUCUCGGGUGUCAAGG | -0.885 |
| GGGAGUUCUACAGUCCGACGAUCUCAAGUCCUGUGCUACACAUCGUAUGUACCGAAUCGGGCCCGGGCCCGGGCCCGGAAAGUAUUAUGUUACGCCGUUCGGAUCUGCACUUCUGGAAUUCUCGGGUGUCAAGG | -1.21 |
| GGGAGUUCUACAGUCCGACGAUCACCAUGCAGGUGGGCAUCUUUGGGAAGUGGGGCAAGGGGCGGAUAGGGAGGGGGGUAACACUUUGGGAACAGGUGGUCCCAGGUCGUUUCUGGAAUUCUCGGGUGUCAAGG | 1.11 |
| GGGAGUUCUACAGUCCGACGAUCAGUCCUGUGCUACACAUCGUAUGUACCGAAUCAAACCCAAAUUUAAAUUUUUUUAAAAAAGUAUUAUGUUACGCCGUUCGGAUCUGCACUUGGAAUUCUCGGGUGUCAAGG | -0.344 |
| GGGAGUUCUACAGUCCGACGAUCACCAUGCAGGUGGGCAUCUUUGGGAAGUGGGGCAAGGGGGGGAUAGGGAGGGGGGUAACACUUAGGGAACAGGUGGUCCCAGGUCGUUUCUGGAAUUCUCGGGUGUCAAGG | 1.3 |
| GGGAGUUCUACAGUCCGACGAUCCACAGACAACACGCACCCACACAGACACAGAGGGAUGGGGUUGGGAUGGGGACAGGGUGCACAGCAGGGCGGGGUAGGACCCCAGCCCCUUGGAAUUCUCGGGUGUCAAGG | 1.83 |

Some of these lines once more (sample 4):
| Sequence | log2 enrichment |
| --- | --- |
| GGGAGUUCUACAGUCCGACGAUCCCUCAAGUCCUGUGCUACACAUCGUAUGUACCGAAUCGGGGUGGGUGGGGUGGAAAGUAUUAUGUUACGCCGUUCGGAUCUGCACUUCCAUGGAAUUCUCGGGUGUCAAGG | 1.17 |
| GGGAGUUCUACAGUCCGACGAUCUUCCUCAAGUCCUGUGCUACACAUCGUAUGUACCGAAUCGGAGGGAGGAGGAAAGUAUUAUGUUACGCCGUUCGGAUCUGCACUUCCAGCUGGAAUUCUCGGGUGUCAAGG | -0.661 |
| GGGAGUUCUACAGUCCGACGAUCACCAUGCAGGUGGGCAUCUUUGGGAAGUGGGGCAAGGGGGGGAUAGGGAGGGGGGUAACACUUAGGGAACAGGUGGUCCCAGGUCGUUUCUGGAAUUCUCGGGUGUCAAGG | 1.3 |
| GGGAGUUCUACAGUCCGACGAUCUCAAGUCCUGUGCUACACAUCGUAUGUACCGAAUCGGGCCCGGGCCCGGGCCCGGAAAGUAUUAUGUUACGCCGUUCGGAUCUGCACUUCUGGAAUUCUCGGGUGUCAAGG | -1.21 |
| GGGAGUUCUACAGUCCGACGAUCACCAUGCAGGUGGGCAUCUUUGGGAAGUGGGGCAAGGGGCGGAUAGGGAGGGGGGUAACACUUUGGGAACAGGUGGUCCCAGGUCGUUUCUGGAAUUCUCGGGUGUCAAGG | 1.11 |
| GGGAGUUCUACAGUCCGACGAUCAGUCCUGUGCUACACAUCGUAUGUACCGAAUCAAACCCAAAUUUAAAUUUUUUUAAAAAAGUAUUAUGUUACGCCGUUCGGAUCUGCACUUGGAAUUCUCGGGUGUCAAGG | -0.344 |
